Results of several laboratories.
Lines come from different studies, so protocols differ. ± gives the spread as reported.
lasR: Transcriptional activator protein LasR (lasR, Pseudomonas aeruginosa, UniProt P25084)
UniProt P25084, sequence (whole entry, looked up): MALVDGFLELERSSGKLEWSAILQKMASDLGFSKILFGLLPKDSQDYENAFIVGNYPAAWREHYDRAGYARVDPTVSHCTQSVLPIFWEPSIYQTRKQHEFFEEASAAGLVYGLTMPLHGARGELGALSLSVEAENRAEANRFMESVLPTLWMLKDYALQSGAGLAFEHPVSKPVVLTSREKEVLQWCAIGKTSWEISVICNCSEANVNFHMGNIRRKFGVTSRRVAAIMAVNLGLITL
APP: Amyloid-beta precursor protein (APP, Homo sapiens, UniProt P05067)
UniProt P05067, sequence (whole entry, looked up): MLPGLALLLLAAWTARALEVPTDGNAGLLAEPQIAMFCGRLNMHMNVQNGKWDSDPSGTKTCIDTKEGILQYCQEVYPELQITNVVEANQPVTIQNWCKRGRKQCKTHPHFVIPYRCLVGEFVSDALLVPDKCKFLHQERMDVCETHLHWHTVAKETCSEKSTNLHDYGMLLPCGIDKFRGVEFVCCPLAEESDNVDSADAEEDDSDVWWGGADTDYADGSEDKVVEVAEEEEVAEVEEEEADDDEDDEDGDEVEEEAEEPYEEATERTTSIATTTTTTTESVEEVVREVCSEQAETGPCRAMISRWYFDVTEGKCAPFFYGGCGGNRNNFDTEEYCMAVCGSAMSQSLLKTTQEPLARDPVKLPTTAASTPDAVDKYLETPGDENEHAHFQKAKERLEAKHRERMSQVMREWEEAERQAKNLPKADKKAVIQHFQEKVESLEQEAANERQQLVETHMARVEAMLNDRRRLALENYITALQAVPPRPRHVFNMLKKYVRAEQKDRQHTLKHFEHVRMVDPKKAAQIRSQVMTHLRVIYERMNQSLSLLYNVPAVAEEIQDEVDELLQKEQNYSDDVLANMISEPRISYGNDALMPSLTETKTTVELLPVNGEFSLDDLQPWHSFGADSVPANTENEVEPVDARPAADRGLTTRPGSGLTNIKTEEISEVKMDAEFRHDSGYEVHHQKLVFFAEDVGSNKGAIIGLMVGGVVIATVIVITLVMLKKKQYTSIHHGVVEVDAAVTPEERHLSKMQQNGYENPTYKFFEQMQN
UniProt P41227, sequence (whole entry, looked up): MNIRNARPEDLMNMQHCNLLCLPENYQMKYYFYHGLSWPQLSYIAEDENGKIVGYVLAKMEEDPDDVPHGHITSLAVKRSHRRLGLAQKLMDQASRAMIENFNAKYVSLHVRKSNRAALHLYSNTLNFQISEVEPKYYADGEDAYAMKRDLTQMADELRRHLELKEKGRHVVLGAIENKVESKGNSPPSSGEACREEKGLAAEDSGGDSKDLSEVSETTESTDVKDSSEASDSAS
UniProt P17301, sequence (whole entry, looked up): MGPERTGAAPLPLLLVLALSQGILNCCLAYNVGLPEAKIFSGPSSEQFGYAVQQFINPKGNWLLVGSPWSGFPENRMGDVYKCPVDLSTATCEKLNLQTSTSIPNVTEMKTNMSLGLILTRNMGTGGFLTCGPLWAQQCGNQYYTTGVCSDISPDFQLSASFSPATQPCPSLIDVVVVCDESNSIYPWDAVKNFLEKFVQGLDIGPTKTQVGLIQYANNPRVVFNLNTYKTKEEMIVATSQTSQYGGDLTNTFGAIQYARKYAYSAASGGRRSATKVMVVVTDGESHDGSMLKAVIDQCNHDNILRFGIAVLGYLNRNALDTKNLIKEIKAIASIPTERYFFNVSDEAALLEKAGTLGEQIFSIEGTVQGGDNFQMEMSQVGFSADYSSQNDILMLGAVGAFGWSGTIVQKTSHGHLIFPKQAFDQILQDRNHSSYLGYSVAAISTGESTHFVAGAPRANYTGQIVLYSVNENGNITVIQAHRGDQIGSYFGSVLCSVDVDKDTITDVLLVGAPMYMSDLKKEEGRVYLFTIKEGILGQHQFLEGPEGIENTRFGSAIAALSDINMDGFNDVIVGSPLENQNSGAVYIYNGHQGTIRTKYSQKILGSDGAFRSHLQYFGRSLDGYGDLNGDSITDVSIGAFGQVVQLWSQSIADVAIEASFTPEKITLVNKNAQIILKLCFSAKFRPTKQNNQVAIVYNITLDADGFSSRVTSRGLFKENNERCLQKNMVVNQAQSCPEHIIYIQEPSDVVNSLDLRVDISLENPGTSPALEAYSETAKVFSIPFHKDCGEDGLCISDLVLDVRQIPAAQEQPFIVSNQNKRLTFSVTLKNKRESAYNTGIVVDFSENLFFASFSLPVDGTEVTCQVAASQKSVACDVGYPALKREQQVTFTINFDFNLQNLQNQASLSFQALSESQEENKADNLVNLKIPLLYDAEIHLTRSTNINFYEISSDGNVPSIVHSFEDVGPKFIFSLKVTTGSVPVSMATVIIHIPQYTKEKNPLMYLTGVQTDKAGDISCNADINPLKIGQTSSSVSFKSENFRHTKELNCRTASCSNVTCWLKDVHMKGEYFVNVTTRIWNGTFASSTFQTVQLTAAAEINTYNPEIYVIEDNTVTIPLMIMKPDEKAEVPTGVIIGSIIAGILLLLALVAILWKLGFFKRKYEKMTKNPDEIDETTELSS
UniProt Q13164, sequence (whole entry, looked up): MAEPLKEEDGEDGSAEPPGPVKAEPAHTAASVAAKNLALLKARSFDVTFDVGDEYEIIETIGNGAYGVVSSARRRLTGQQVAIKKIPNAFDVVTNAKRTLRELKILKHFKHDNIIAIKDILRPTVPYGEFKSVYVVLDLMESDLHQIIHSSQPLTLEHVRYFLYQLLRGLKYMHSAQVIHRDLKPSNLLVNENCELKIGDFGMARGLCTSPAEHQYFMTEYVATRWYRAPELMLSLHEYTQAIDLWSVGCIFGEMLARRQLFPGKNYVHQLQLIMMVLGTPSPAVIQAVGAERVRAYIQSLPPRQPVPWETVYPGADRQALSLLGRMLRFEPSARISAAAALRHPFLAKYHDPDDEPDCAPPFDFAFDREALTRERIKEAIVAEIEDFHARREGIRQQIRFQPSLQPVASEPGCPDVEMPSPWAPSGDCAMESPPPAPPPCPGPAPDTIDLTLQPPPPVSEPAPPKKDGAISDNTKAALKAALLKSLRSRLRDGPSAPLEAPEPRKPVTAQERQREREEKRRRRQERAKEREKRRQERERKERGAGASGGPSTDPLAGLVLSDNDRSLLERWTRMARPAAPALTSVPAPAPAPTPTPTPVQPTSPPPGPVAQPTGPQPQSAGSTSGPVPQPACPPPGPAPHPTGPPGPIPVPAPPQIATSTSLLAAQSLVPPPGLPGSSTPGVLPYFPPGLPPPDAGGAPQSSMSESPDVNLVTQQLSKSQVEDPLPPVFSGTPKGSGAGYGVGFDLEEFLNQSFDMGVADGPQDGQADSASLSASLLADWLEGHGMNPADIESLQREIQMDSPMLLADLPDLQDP
UniProt P54578, sequence (whole entry, looked up): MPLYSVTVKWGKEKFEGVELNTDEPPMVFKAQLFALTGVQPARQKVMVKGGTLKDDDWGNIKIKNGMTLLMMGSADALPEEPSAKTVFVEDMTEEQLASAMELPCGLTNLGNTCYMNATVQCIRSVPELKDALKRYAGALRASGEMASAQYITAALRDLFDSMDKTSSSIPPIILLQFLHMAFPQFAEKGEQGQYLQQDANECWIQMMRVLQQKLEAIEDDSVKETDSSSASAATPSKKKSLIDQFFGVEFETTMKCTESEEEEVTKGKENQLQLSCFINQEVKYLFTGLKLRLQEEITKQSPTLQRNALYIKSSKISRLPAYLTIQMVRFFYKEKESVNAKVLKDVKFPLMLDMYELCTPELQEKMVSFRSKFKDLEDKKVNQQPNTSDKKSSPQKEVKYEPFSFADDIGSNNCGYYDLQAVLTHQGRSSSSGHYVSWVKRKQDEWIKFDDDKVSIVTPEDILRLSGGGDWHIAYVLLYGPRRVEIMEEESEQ
UniProt P51955, sequence (whole entry, looked up): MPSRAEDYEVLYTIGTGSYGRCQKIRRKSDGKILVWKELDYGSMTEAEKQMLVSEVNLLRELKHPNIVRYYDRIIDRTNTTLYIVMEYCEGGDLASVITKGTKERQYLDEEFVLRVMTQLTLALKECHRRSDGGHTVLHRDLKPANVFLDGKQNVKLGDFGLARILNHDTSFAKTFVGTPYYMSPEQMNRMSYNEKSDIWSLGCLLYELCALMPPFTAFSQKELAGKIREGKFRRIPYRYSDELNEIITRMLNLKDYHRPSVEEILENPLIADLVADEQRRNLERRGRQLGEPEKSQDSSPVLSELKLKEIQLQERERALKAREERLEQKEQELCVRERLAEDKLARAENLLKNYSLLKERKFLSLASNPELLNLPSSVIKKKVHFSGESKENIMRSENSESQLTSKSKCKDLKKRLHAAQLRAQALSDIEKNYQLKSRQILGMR

Structure (SMILES) = Cc1ccc(N2CC3CCC(C2)N3C)cc1C(=O)N[C@H](C)c1cc(-c2cnn(C)c2)nc2ccccc12; target = Ubiquitin carboxyl-terminal hydrolase 14 (USP14, Homo sapiens, UniProt P54578); assay = enzyme activity; setting = concentration not given; inhibition = no inhibition
Structure (SMILES) = N#CC1(c2ccc3c(N)ncnn23)OC(COP(=O)(O)OP(=O)(O)OP(=O)(O)O)C(O)C1O (centres unmarked); target = DNA-directed RNA polymerase, mitochondrial (POLRMT, Homo sapiens, UniProt O00411); assay = enzyme activity; setting = concentration not given; inhibition = no inhibition
Structure (SMILES) = O=C(N[C@H]1CCOC1=O)c1ccc(-n2cc(C3CC3)nn2)cc1; target = lasR; assay = reporter gene, antagonist; setting = 10 µM, together with: OdDHL 10 nM; inhibition = 10%
Structure (SMILES) = CC(=O)NC(Cc1ccc(Br)c(Cl)c1)C(=O)N[C@@H](C)C(=O)N1CCC[C@H]1C(=O)N1CCC[C@H]1C(=O)N[C@@H](CCC(=O)O)C(=O)N[C@@H](Cc1c[nH]cn1)C(=O)N[C@@H](CO)C(=O)N[C@H](C(=O)N[C@@H](C)C(N)=O)[C@@H](C)OP(=O)(O)O (some centres unmarked); target = Serine/threonine-protein kinase Nek2 (NEK2, Homo sapiens, UniProt P51955); assay = enzyme activity, inhibitor; setting = 10 µM; inhibition = 0.08%
Structure (SMILES) = C[C@@H](O)[C@H](NC(=O)[C@H](CCCCN)NC(=O)COCCN)C(=O)N[C@@H](CCCNC(=N)N)C(=O)NC(C)(C)C(=O)N[C@@H](CCCNC(=N)N)C(=O)NC(C)(C)C(=O)N[C@H](C(=O)N[C@@H](CO)C(=O)N[C@@H](Cc1c[nH]cn1)C(=O)N[C@@H](Cc1ccc(O)cc1)C(=O)NCC(=O)O)[C@@H](C)O; target = Integrin alpha-2, with integrin beta-1 (Homo sapiens, UniProt P17301); test system = K562 expressing integrin α2; setting = up to 1×1 µM; scale = maximal; inhibition = 35%
Structure (SMILES) = O=C(N[C@H]1CCOC1=O)c1cccc(-n2cc(C3CCCCC3)nn2)c1; target = lasR; assay = reporter gene, antagonist; setting = 10 µM, together with: OdDHL 10 nM; inhibition = 21%
Structure (SMILES) = CC(C)(COP(=O)(O)OP(=O)(O)OC[C@H]1O[C@@H](n2cnc3c(N)ncnc32)[C@H](O)[C@@H]1OP(=O)(O)O)[C@@H](O)C(=O)NCCC(=O)NCCSCCC(=O)N[C@@H](CO)C(=O)NCC(=O)N[C@@H](CCCNC(=N)N)C(=O)NCC(=O)N[C@@H](CCCCN)C(N)=O; target = N-alpha-acetyltransferase 10 (Homo sapiens, UniProt P41227); assay = enzyme activity, inhibitor; setting = 1 µM; inhibition = 10 to 40%
Structure (SMILES) = CCCCCc1nc2ccc(/N=N/c3ccc([N+](=O)[O-])cc3)cc2c(-c2ccccc2)c1I; target = APP; assay = fibril formation, ThT fluorescence; test system = PBS; setting = concentration not given, 24 h, 37 °C, together with: Aβ42 25 µM; inhibition = 74.7 ± 2.3%
Structure (SMILES) = O=C(N[C@H]1CCOC1=O)c1cccc(-n2cc(C3CCCC3)nn2)c1; target = lasR; assay = reporter gene, antagonist; setting = 10 µM, together with: OdDHL 10 nM; inhibition = 20%
Structure (SMILES) = Cc1ccc(-c2nc3ccc(/N=N/c4ccc([N+](=O)[O-])cc4)cc3c(-c3ccccc3)c2I)cc1; target = APP; assay = amyloid aggregation, inhibitor, fluorescence; setting = 25 µM; inhibition = ~75%
Structure (SMILES) = [Cl][Au-][P+](c1ccccc1)(c1ccccc1)c1cc[cH-]c1.[Cl][Au-][P+](c1ccccc1)(c1ccccc1)c1cc[cH-]c1.[Cl][Ti+2][Cl]; target = Mitogen-activated protein kinase 7 (MAPK7, Homo sapiens, UniProt Q13164); assay = kinase activity; setting = 10 µM; inhibition = ≥ 50%

A few entries again:
Structure (SMILES) = Cc1ccc(-c2nc3ccc(/N=N/c4ccc([N+](=O)[O-])cc4)cc3c(-c3ccccc3)c2I)cc1; target = APP; assay = amyloid aggregation, inhibitor, fluorescence; setting = 25 µM; inhibition = ~75%
